Published values of several laboratories.
Every numbered part comes from another study and shows a few of its results, in no order.

Series 1 — method: universal PBM; molecule type: double-stranded DNA, one strand shown; matrix: in vitro; tested at: not given; direction: higher = stronger binding; endpoint: E-score
Target: Sal-like protein 4, full length isoform B (SALL4, Homo sapiens, UniProt Q9UJQ4-2, residues 1-616)
Setting: 8-mer, flanks averaged, mean of replicates
Target sequence (chain): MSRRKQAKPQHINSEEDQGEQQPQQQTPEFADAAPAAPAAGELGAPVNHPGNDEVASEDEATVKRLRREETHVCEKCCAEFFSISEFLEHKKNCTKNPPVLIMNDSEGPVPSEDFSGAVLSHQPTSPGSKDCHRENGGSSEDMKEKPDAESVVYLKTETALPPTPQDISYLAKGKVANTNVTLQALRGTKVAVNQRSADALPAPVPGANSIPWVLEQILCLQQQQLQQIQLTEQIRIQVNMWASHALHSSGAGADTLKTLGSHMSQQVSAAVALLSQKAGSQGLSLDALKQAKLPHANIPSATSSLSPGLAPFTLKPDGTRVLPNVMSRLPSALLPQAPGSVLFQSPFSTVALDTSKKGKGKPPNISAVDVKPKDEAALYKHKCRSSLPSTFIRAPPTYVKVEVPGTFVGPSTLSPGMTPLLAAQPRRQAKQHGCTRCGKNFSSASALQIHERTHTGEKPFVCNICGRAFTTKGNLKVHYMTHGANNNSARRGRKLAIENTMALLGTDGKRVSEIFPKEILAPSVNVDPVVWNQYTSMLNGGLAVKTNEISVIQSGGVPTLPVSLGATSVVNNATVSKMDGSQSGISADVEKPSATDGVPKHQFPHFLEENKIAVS
AGGGTGTC: -0.176
CCCGGGCG: -0.358
ATTCTTAC: 0.233
TAAACCCA: 0.222
CAGATTCA: 0.0896
CGTACTCA: -0.0843
GGGAACGA: -0.253
CATCACAC: -0.0884
GCGCAAGA: 0.00952
AGTGACGC: -0.207
AGTGTGCA: 0.0976
GCTGGAGA: -0.196
GACGATCC: -0.0851
AATGAGGG: -0.0697
AGATCCAT: 0.0763
ACAATCTA: 0.127
AACAATAC: 0.229
TATGCGGA: 0.146
AGCCTGGA: -0.319
CTGTACCC: -0.24
TACTCAAA: 0.144
CGTGACCA: -0.106
AATGTGCA: 0.155
CTTACATA: 0.217
ATTAGCGA: 0.179

Series 2 — method: RNA Bind-n-Seq; molecule type: RNA; matrix: in vitro; tested at: 200 nM; setting: whole 134-nt RNA, ends assumed; added: 150 mM KCl; reference: input library; direction: higher = stronger binding; endpoint: log2 enrichment
Target: Fragile X messenger ribonucleoprotein 1, C-terminal low-complexity region (Fmr1, Mus musculus, UniProt P35922)
Shared flanks, not repeated: GGGAGUUCUACAGUCCGACGAUC … UGGAAUUCUCGGGUGUCAAGG
AGUCCUGUGCUACACAUCGUAUGUACCGAAUCGGAAAAAGGAAAAAGGAAAAAGGGGAAAGUAUUAUGUUACGCCGUUCGGAUCUGCACU: -0.624
CCUCAAGUCCUGUGCUACACAUCGUAUGUACCGAAUCGGGUGGGGUGGUGGGAAAGUAUUAUGUUACGCCGUUCGGAUCUGCACUUCCAG: 1.43
UCCUGUGCUACACAUCGUAUGUACCGAAUCGGGGUUUGGGGUUUUUUUGGGGAAAGGGGAAAGUAUUAUGUUACGCCGUUCGGAUCUGCA: 0.937
UGGCCCUGGUGGCAUGCGGGGAGGGAGAGGUGGCCUCAUGGAUCGUGGUGGUCCCGGUGGAAUGUUCAGAGGUGGCCGUGGUGGAGACAG: 0.798
CAAGUCCUGUGCUACACAUCGUAUGUACCGAAUCGGGUUUGGGAGGGUUUUUGGGAAAGUAUUAUGUUACGCCGUUCGGAUCUGCACUUC: 0.88
ACCAUGCAGGUGGGCAUCUUUGGGAAGUGGGGCAAGGGGGGGAUAGGGAGGGGGGUAACACCUUGGGAACAGGUGGUCCCAGGUCGUUUC: 0.774
AGUCCUGUGCUACACAUCGUAUGUACCGAAUCGGGGUGGGGUUUUUUUGGGGAGGGGAAAGUAUUAUGUUACGCCGUUCGGAUCUGCACU: 0.978
CACAGACAACACGCACCCACACAGACACAGAGGGAAGGGGUUGGGAUGGGGACAGGGUGCACAGCAGGGCGAGGUAGGACCCCAGCCCCU: 1.13
CACAGACAACAGGCACCCACACAGACACAGAGGGAAGGGGUUGGGAUGGGGACAGGGUGCACAGCAGGGCGGGGUAGGACCCCAGCCCCU: 0.826
UGCAGUCGAGCCAGCACCUGUUUCUGGACCUGCCUAAGGUAAGUGAGCUUUUCUCUCAACCUAGUUUUCAGGAGGCCUCUUCUGUCCCCU: 0.113

Series 3 — method: RNA Bind-n-Seq; molecule type: RNA; matrix: in vitro; tested at: 365 nM; reference: no-protein control; direction: higher = stronger binding; endpoint: RBNS enrichment (R)
Target: RNA binding protein fox-1 homolog 2, RRM domain, GST-SBP tag (RBFOX2, Homo sapiens, UniProt O43251-10, residues 100-194)
Setting: natural RNA segment, single round, ends assumed
Shared flanks, not repeated: GGGAGUUCUACAGUCCGACGAUC … UGGAAUUCUCGGGUGCCAA
Target sequence (chain): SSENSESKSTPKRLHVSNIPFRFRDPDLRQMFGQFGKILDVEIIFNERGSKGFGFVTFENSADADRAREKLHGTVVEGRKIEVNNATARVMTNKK
UUGUAAAAGGACACCUUCACUGAAGCAAGUCGGAAAGUACAAUGAAAAUAAAUAUUUUUGGUAUUUAUUUAUGAAAUAUUUGAACAUUUUUUCAAUAAUUCCUUUUUACU: 0.484
GCCUAUGUUGGGGGGGACCCUGCCUCAGCUGACCCGGCCUCUCUGCCCCACCCAAGCCCAAACUUGGUUUCUGUGAGAAUAGUGGAGGAAGGUGAGAUGGCCAGUUUGAA: 0.421
ACACUCCUGCUCACCCAGCAAGUGCAGCCUCUGGCCCUCCUCUGCUUUUUCACUCCAUCCAGCUUAGAGUCCCCUGCUGGCUUGUCACUCGCCUGCUUUGUGCCAGGCUG: 1.02
UUGUGGAAUUUAAGAAAUACAUUUUGUGUGCAUAUUGUUUCAUAGCAAGAAUUGGUUGCAAAAAAAUGCUUUAUUUUUGAACAAUGCUUGGAAAUAUUAUGUGACUUUUU: 0.621
UGAGCCCCAAGCCCCUUGGCCCACCACCCUGUUGUCUGAAGGGCUCUGUCUCACUCCACCUCCUUAUCUGCCAGCAUUGCUGUUUCCUGCAAAGGAUUAUGGGAAACUCC: 0.327
CUGCUGGGUGGUGAUUGUGAGUUCAGACAAUAAAAAAAAUGUAUUUUUUUCAAUACUGUAUAAAAAUAGUAUUCUGAUUACCUCCCCCUCAAUAAAAAAAAAGUCCAGAU: 0.612
AUGUGUUAAAAGGACUGCUUUUCCCCACUGUGUCCCUGUCAAAAAUCAACUGAACAUAUAUGUAAGAGUUAUUUAAAUUUUGAAAUUGGGACGUAUACAUUCUCCAUUCU: 0.331
UUAUUUUUUACAACCGGACCUCCACCCCCAACUUCCUCCAGCCCAGCUGGGCUUCCUUUGUUGGAGUCAACUGUUGAUGCUUCCAGGCCAAACUGGCUUCCUCUCCUCCU: 0.406
CUGGAACCCCAGGCCAAAUGUAUGCUCUGCUUCCUUGAGUGCUGUAAGAGUUCCCACUGGCCUUGCUCUGAGGCCAAGAGCUUUUUCAAAUGCAGGCUGCAGGAUUAAGC: 0.652
CCUUGCACCUCCAAUAGGUUUUAUUAUUUUUUUUAAAUUAAUGAACAUAUGUAAUAUUAAUAGUUAUUAUUUACUGGUGCAGAUGGUUGACAUUUUUCCCUAUUUUCCUC: 0.425
UCUCCCAGUGACCGGCCGCUGUGUGUCCGCUCUGGGCCGACGCUUCCAUCCAGACCACUUCACCUGCACAUUCUGCCUGCGCCCACUCACCAAAGGCUCCUUCCAGGAGC: 0.8
UUGGAGGCUGUGUUACAUGCAUGCCCUAAAGCAGUCAGUCUGUUAGUAUGAGCAAGACAUCUGAAGUACACAGUUGCUUUUAGGCUUGUAUAGUUAUUUUCUACACAUGC: 0.812

Series 4 — method: RNAcompete; molecule type: RNA; matrix: in vitro; tested at: 20 nM; setting: 7-mer, probes averaged, single round; reference: mean of 7-mers; direction: higher = stronger binding; endpoint: 7-mer Z-score
Target: PABPC1L2, full length, GST fusion (mouse, UniProt A0ABA7IW68)
Construct (chain): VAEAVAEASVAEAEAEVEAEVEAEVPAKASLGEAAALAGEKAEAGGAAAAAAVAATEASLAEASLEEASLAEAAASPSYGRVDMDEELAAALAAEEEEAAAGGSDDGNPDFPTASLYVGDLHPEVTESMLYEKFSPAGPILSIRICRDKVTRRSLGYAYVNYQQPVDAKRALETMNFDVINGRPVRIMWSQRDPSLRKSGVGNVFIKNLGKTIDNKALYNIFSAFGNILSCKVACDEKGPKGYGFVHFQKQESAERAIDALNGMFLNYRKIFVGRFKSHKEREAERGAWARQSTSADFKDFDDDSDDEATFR
CUAGAAU: -0.249
CCCGAUC: -0.262
UUAAGCG: 0.0225
AUCGCAU: -0.2
AAGUCGU: -0.103
CAGGACA: 0.258
AGUUUAA: -0.0409
GAUAAAU: 1.83
AGCGGUG: 0.00979
GUGGUCA: 0.037
AAGAUGA: 0.37
AGUUCGC: -0.42
GUGACCC: -0.133
AGCAAGC: -0.0228
UACCCUG: -0.322
GUACUGU: -0.191
UACCCAA: -0.141

For quick reference, copied from above (series 4):
AUCGCAU: -0.2
AAGUCGU: -0.103
CAGGACA: 0.258
AGUUUAA: -0.0409
